# Experimental data gathered from unrelated publications.
# Each line is one published result; not all experiments were run side by side.
# Organism: Pseudomonas aeruginosa
SMILES,test,test system,setting,scale,endpoint,result
CC[C@@H](C)[C@@H](NC(=O)[C@@H](C)NC(=O)[C@@H](CCCCN)NC(=O)[C@@H](CC(C)C)NC(=O)[C@@H](C)NC(=O)[C@H](NC(=O)[C@@H](Cc1c[nH]cn1)NC(=O)[C@@H](CC(C)C)NC(=O)[C@H](NC(=O)[C@H](NC(=O)[C@@H](CCCCN)NC(=O)[C@@H](CCCCN)NC(=O)[C@@H](C)NC(=O)[C@@H](CO)NC(=O)[C@@H](CCCCN)NC(=O)[C@@H](Cc1ccccc1)NC(=O)[C@H](NC(=O)[C@@H](CCCCN)NC(=O)[C@@H](CC(C)C)NC(=O)[C@@H](Cc1ccccc1)NC(=O)[C@@H](CO)NC(=O)[C@@H](CCCCN)NC(=O)[C@@H](Cc1c[nH]c2ccccc12)NC(=O)[C@@H](CCCCN)NC(C)=O)[C@H](C)O)[C@H](C)O)C(C)C)[C@H](C)O)C(=O)N[C@H](CO)C(=O)N[C@H](CO)C(N)=O,,six isolates,"24 h, 37 °C",,MIC geometric mean,4.1 µM
CC[C@H](C)[C@H](NC(=O)[C@H](Cc1c[nH]cn1)NC(=O)[C@H](CCCCNC(=O)[C@@H](NC(=O)[C@H](CCCCN)NC(=O)CSC[C@H](NC(=O)[C@H](Cc1ccccc1)NC(=O)[C@H](CCCCNC(=O)[C@H](CC(C)C)NC(=O)[C@@H]1CCCN1C(=O)[C@H](CCCCN)NC(=O)CCS[C@@H]1O[C@H](CO)[C@H](O)[C@H](O)[C@H]1O)NC(=O)[C@H](CC(C)C)NC(=O)[C@@H]1CCCN1C(=O)[C@H](CCCCN)NC(=O)C[C@@H]1O[C@@H](C)[C@@H](O)[C@@H](O)[C@@H]1O)C(N)=O)[C@@H](C)CC)NC(=O)[C@@H](NC(=O)[C@H](CCCCN)NC(=O)CSC[C@H](NC(=O)[C@H](Cc1ccccc1)NC(=O)[C@H](CCCCNC(=O)[C@H](CC(C)C)NC(=O)[C@@H]1CCCN1C(=O)[C@H](CCCCN)NC(=O)CCS[C@@H]1O[C@H](CO)[C@H](O)[C@H](O)[C@H]1O)NC(=O)[C@H](CC(C)C)NC(=O)[C@@H]1CCCN1C(=O)[C@H](CCCCN)NC(=O)C[C@@H]1O[C@@H](C)[C@@H](O)[C@@H](O)[C@@H]1O)C(N)=O)[C@@H](C)CC)C(N)=O,,PAO1,biofilm-forming conditions,,MBC,> 45 µM
C[C@@H](O)[C@H](NC(=O)c1ccc(C#Cc2ccc(CN3CCOCC3)cc2)cc1)C(=O)NO,microbial growth,PAO1,,,MIC90,1 µg/mL
CC(C)C[C@H](NC(=O)[C@@H]1CSCC(=O)N[C@@H](CCCCN)C(=O)N[C@@H](CC(C)C)C(=O)N[C@@H](CCCCN)C(=O)N[C@H]2CCCCNC(=O)[C@H](CCCCN)NC(=O)[C@H](CC(C)C)NC(=O)[C@H](CCCCN)NC(=O)CSC[C@H](NC(=O)[C@H](CC(C)C)NC(=O)[C@H](CC(C)C)NC(=O)[C@H](CCCCN)NC2=O)C(=O)N[C@@H](CCCCN)C(=O)N[C@@H](CC(C)C)C(=O)N[C@@H](CCCCN)C(=O)N1)C(N)=O,,PAO1,24 to 25 h,,minimal biofilm inhibitory concentration,16 µg/mL
CC[C@H](C)[C@H](NC(=O)[C@H](CCCNC(=N)N)NC(=O)[C@H](CCCCN)NC(=O)[C@H](CC(C)C)NC(=O)[C@H](CC(C)C)NC(=O)CN)C(=O)N[C@@H](CCCCN)C(=O)N[C@H](C(=O)N[C@@H](CC(C)C)C(=O)N[C@@H](CC(C)C)C(=O)NCCCC[C@H](NC(=O)[C@H](CCCCNC(=O)[C@H](CC(C)C)NC(=O)[C@H](CC(C)C)NC(=O)[C@@H](NC(=O)[C@H](CCCCN)NC(=O)[C@@H](NC(=O)[C@H](CCCNC(=N)N)NC(=O)[C@H](CCCCN)NC(=O)[C@H](CC(C)C)NC(=O)[C@H](CC(C)C)NC(=O)CN)[C@@H](C)CC)[C@@H](C)O)NC(=O)[C@H](CC(C)C)NC(=O)[C@H](CC(C)C)NC(=O)[C@@H](NC(=O)[C@H](CCCCN)NC(=O)[C@@H](NC(=O)[C@H](CCCNC(=N)N)NC(=O)[C@H](CCCCN)NC(=O)[C@H](CC(C)C)NC(=O)[C@H](CC(C)C)NC(=O)CN)[C@@H](C)CC)[C@@H](C)O)C(N)=O)[C@@H](C)O,checkerboard,ATCC 27853,together with: polymyxin B,,FIC index,0.375
CC[C@H](C)[C@H](NC(=O)[C@H](CCCCN)NC(=O)[C@H](CCCCN)NC(=O)[C@H](CC(C)C)NC(=O)[C@H](CCCCN)NC(=O)[C@H](CCC(=O)O)NC(=O)[C@H](CCCCN)NC(=O)[C@@H](NC(=O)[C@H](CCCCN)NC(=O)[C@H](CC(N)=O)NC(=O)[C@H](CCCNC(=N)N)NC(=O)[C@H](Cc1ccccc1)NC(=O)[C@H](CCCCN)NC(=O)[C@H](CCCNC(=N)N)NC(=O)[C@H](CC(C)C)NC(=O)[C@H](CCCNC(=N)N)NC(=O)[C@H](CCCCN)NC(=O)[C@H](CCCNC(=N)N)NC(=O)[C@H](CC(C)C)NC(=O)[C@@H](N)CCCNC(=N)N)[C@@H](C)CC)C(=O)NCC(=O)N[C@@H](CCC(N)=O)C(=O)N[C@@H](CCCCN)C(=O)N[C@H](C(=O)N[C@@H](CCC(N)=O)C(=O)NCC(=O)N[C@@H](Cc1ccccc1)C(=O)N[C@H](C(=O)N1CCC[C@H]1C(=O)N[C@@H](CCCCN)C(=O)N[C@@H](CC(C)C)C(=O)N[C@@H](CCC(N)=O)C(=O)N1CCC[C@H]1C(=O)N[C@@H](CO)C(=O)N[C@@H](CCCCN)C(=O)N[C@@H](CCC(N)=O)C(=O)N[C@@H](CO)C(=O)O)C(C)C)[C@@H](C)CC,inhibition zone method,"11092304, LB 0.8% agar with 154 mM NaCl","overnight, 37 °C",,lethal concentration,5.23 µM
CC(CCCOC(=O)CCC[N+](C)(C)C)C1CCC2C3CCC4CC(OC(=O)CCC[N+](C)(C)C)CCC4(C)C3CC(OC(=O)CCC[N+](C)(C)C)C12C (stereo not shown),,ATCC 27853,,relative to: HC50 over MIC,selectivity index,> 4
CC[C@H](C)[C@H](NC(=O)[C@H](CCCCN)NC(=O)[C@H](CCCCN)NC(=O)[C@H](CC(C)C)NC(=O)[C@H](CCCCN)NC(=O)[C@H](CCC(=O)O)NC(=O)[C@H](CCCCN)NC(=O)[C@@H](NC(=O)[C@H](CCCCN)NC(=O)[C@H](CC(N)=O)NC(=O)[C@H](CCCNC(=N)N)NC(=O)[C@H](Cc1ccccc1)NC(=O)[C@H](CCCCN)NC(=O)[C@H](CCCNC(=N)N)NC(=O)[C@H](CC(C)C)NC(=O)[C@H](CCCNC(=N)N)NC(=O)[C@H](CCCCN)NC(=O)[C@H](CCCNC(=N)N)NC(=O)[C@H](CC(C)C)NC(=O)[C@@H](N)CC(C)C)[C@@H](C)CC)C(=O)NCC(=O)N[C@@H](CCC(N)=O)C(=O)N[C@@H](CCCCN)C(=O)N[C@H](C(=O)N[C@@H](CCC(N)=O)C(=O)NCC(=O)N[C@@H](Cc1ccccc1)C(=O)N[C@H](C(=O)N1CCC[C@H]1C(=O)N[C@@H](CCCCN)C(=O)N[C@@H](CC(C)C)C(=O)N[C@H](C(=O)N1CCC[C@H]1C(=O)N[C@@H](CCCNC(=N)N)C(=O)N[C@H](C(=O)N[C@@H](CCC(=O)O)C(=O)N[C@@H](CO)C(=O)O)[C@@H](C)O)C(C)C)C(C)C)[C@@H](C)CC,inhibition zone method,"11082616, LB 0.8% agar with 154 mM NaCl","overnight, 37 °C",,lethal concentration,1.47 µM
CC(C)[C@H](N)C(=O)N[C@H]1CSSC[C@@H](C(=O)N[C@H](C(N)=O)C(C)C)NC(=O)[C@H](Cc2c[nH]c3ccccc23)NC(=O)[C@H](CCCCN)NC(=O)[C@H](CCCCN)NC(=O)[C@H](Cc2c[nH]c3ccccc23)NC(=O)[C@H](CCCCN)NC(=O)[C@H](CCCNC(=N)N)NC(=O)[C@H](CCCCN)NC(=O)[C@H](Cc2c[nH]c3ccccc23)NC(=O)[C@H](CCCCN)NC(=O)[C@H](CCCCN)NC(=O)[C@H](Cc2c[nH]c3ccccc23)NC(=O)[C@H](CCCNC(=N)N)NC(=O)[C@H](CCCCN)NC1=O,,CICC 21625,10 x MIC,,time to complete killing,≤ 1 min
CN1CC(=O)N=C1N.C[C@H](CCC(=O)O)[C@H]1CC[C@H]2[C@@H]3CC[C@@H]4C[C@H](O)CC[C@]4(C)[C@H]3C[C@H](O)[C@]12C,,TISTR357,"1 mg per disc, 18 to 24 h, 37 °C",,antibacterial activity,inactive

# Repeated from above:
SMILES,test,test system,setting,scale,endpoint,result
CC[C@H](C)[C@H](NC(=O)[C@H](CCCNC(=N)N)NC(=O)[C@H](CCCCN)NC(=O)[C@H](CC(C)C)NC(=O)[C@H](CC(C)C)NC(=O)CN)C(=O)N[C@@H](CCCCN)C(=O)N[C@H](C(=O)N[C@@H](CC(C)C)C(=O)N[C@@H](CC(C)C)C(=O)NCCCC[C@H](NC(=O)[C@H](CCCCNC(=O)[C@H](CC(C)C)NC(=O)[C@H](CC(C)C)NC(=O)[C@@H](NC(=O)[C@H](CCCCN)NC(=O)[C@@H](NC(=O)[C@H](CCCNC(=N)N)NC(=O)[C@H](CCCCN)NC(=O)[C@H](CC(C)C)NC(=O)[C@H](CC(C)C)NC(=O)CN)[C@@H](C)CC)[C@@H](C)O)NC(=O)[C@H](CC(C)C)NC(=O)[C@H](CC(C)C)NC(=O)[C@@H](NC(=O)[C@H](CCCCN)NC(=O)[C@@H](NC(=O)[C@H](CCCNC(=N)N)NC(=O)[C@H](CCCCN)NC(=O)[C@H](CC(C)C)NC(=O)[C@H](CC(C)C)NC(=O)CN)[C@@H](C)CC)[C@@H](C)O)C(N)=O)[C@@H](C)O,checkerboard,ATCC 27853,together with: polymyxin B,,FIC index,0.375
